Published values gathered from unrelated publications.
Lines come from different studies, so protocols differ. Several values in a cell are separate wells, animals, samples, runs or records. ± marks the error that the study gave.

| SMILES | test | system | conditions | scale | measurement | value |
| --- | --- | --- | --- | --- | --- | --- |
| O=C([O-])CN1CCN(CC(=O)[O-])CCN(CC(=O)[O-])CC1.[44Sc+3] |  | mouse, bone | intravenous, 1 h |  | tracer uptake | 0.26 %ID/g |
| CC(=O)N([O-])CCCCCNC(=O)CCC(=O)N([O-])CCCCCNC(=O)CCC(=O)N([O-])CCCCCN.[89Zr+4] | radio-TLC | aqueous buffer | 3 d, pH 5, 37 °C, 89Zr-labelled complex, with: DTPA 100-fold excess |  | intact complex | 97.4 ± 0.9% |
| Cc1cc(Cl)cc([S+](C)[O-])c1NC(=O)c1cc(Br)nn1-c1ncccc1Cl (stereo not drawn) | potentiometric |  |  |  | logP | 3.6 |
| CC[C@H](C)/C=C/C=C/C=C/C(O)=C/C(=O)C(F)(F)Cl |  | C57BL/6 mice, female, plasma | oral, 25 mg/kg |  | MRT | 2.3 h |
| Cc1cc(-c2ccc(C(=O)[C@@H]3CCCC[C@H]3C(=O)Nc3cnn4c3C(=O)NCC4)cc2)[nH]n1 |  | human, urine | oral, 200 mg, 0-12 h | baseline: dose | cumulative radioactivity recovery | 4.14% and 5.28% and 4.36% and 4.58% and 4.62% and 5.48% |
| C=CC(=O)Nc1cc(Nc2nccc(-c3cn(C)c4ccccc34)n2)c(OC)cc1N(C)CCNC | storage stability | human dried blood spot | 30 d, on ice, LLOQ level |  | recovery | 50.6% |
| O=C(NCC1OC2CCC=CCCC2O1)c1ccc([18F])nc1 (stereo not drawn) |  | healthy female BALB/c nude mice, blood | intravenous, 7.4 MBq per mouse, 120 min |  | tissue uptake | 0.4 ± 0.03 %ID/g |
| CN(Cc1ccccc1)C(=O)CN1CCN(CC(=O)[O-])CCN(CC(=O)[O-])CC1.[44Sc+3] |  | mouse, lung | intravenous, 1 h |  | tracer uptake | 1.69 %ID/g |
| CC(C)c1cnc(-c2cc(Cl)ccc2F)cc1Nc1ccncc1C(=O)NC(CO)CO |  | female C57BL/6 mice, plasma | oral, 30 mg/kg twice daily, day 7, MC-38 tumour-bearing |  | unbound Cmax | 85.2 nM |
| O=S1(=O)CC2CCCCC2CS1 (stereo not drawn) | phase solubility, NMR | water | 25 °C, with: hydroxypropyl-β-cyclodextrin 1009 mM |  | solubility | 117 mM |
| CC[C@H](C)[C@@H]1NC(=O)[C@H](Cc2ccc(O)cc2)NC(=O)CCCSC[C@@H](C(=O)N(CC(=O)N[C@@H](CC(C)C)C(=O)NCC(N)=O)Cc2ccc(F)cc2)NC(=O)[C@H](CC(N)=O)NC(=O)[C@H](CCC(N)=O)NC1=O |  | healthy human females, plasma | intranasal, 300 µg single dose |  | AUC(0-last) | 0.101 ng·h/mL |
| O=C(Nc1cnccc1-c1ccc([18F])cc1)c1ccnc(NC(=O)C2CC2)c1 | ex vivo gamma counting | FVB/NJ mice, both sexes, cecum | intravenous, 120 min |  | mean SUV | 4.82 |
| CN(Cc1ccccc1)C(=O)CN1CCN(CC(=O)N(C)Cc2ccccc2)CCN(Cc2cccc(C(=O)[O-])n2)CC1.[44Sc+3] |  | mouse, lung | intravenous, 1 h |  | tracer uptake | 1.39 %ID/g |
| CCCCN1C(=O)c2cccc3c(NCCCN4CCOCC4)ccc(c23)C1=O |  | acetonitrile |  |  | fluorescence quantum yield | 0.44 |
| C=C(NC(=O)c1csc(-c2nc3c(cc2O)-c2nc(cs2)C(=O)NC(C(C)O)C(=O)NC(=C(C)OC)c2nc(cs2)C(=O)NC2c4nc(cs4)C(=O)NC(COC(=O)c4c5c6c(cccc6n4O)COC(=O)C(OC4CC(C)(O)C(N(C)C)C(C)O4)C2OC5)c2nc-3cs2)n1)C(N)=O (stereo not drawn) |  | ICR mice, Streptococcus pneumoniae ATCC 49169 infected, immunocompromised, blood | intravenous, 16 mg/kg/day once daily |  | AUC(0-inf) | 1890 ng·h/mL |
| COc1cccc(OC)c1-c1cc(C(=O)NC2(C(=O)O)C3CC4CC(C3)CC2C4)nn1-c1ccc(C(=O)N(C)CCOCCN(C)C(=O)[C@H](CCCCNC(=O)[C@H](CC(C)C)NC(=O)C2OC2C(=O)O)NC(=O)CN2CCN(CC(=O)[O-])CCN(CC(=O)[O-])CCN(CC(=O)[O-])CC2)cc1C(C)C.[177Lu+3] (mixture of isomers) |  | mouse, HT-29 xenograft | 72 h post injection, biodistribution | baseline: tumour over muscle uptake | tumour-to-muscle ratio | 41.1 |
| O=C([O-])CN1CCN(CC(=O)[O-])CCN(Cc2cccc(C(=O)[O-])n2)CC1.[44Sc+3] |  | mouse, muscle | intravenous, 1 h |  | tracer uptake | 0.25 %ID/g |
| CC(C)(C)NC(=O)c1ccccc1 |  | water | 24 h |  | logP | 2.01 |
| COc1cccc(OC)c1-c1cc(C(=O)NC2(C(=O)O)C3CC4CC(C3)CC2C4)nn1-c1ccc(C(=O)NCCNC(=O)[C@H](CCCCNC(=O)[C@H](CC(C)C)NC(=O)C2OC2C(=O)O)NC(=O)CN2CCN(CC(=O)[O-])CCN(CC(=O)[O-])CCN(CC(=O)[O-])CC2)cc1C(C)C.[177Lu+3] (mixture of isomers) |  | mouse, HT-29 xenograft, spleen | 4 h post injection |  | tissue uptake | 1.2 %ID/g |
| CC(C)(O)c1ncc([S@](N)(=O)=NC(=O)Nc2c3c(cc4c2CCC4)CCC3)s1 | refers to: eye disorders | healthy human | oral, 300 mg, SDD formulation |  | subjects with TEAEs | 17% |

| SMILES | test | system | conditions | scale | measurement | value |
| --- | --- | --- | --- | --- | --- | --- |
| CCC(CC)CNC(=N)NC(=N)NCCCCCCNC(=N)NC(=N)NCC(CC)CC | metabolic stability | monkey, hepatocytes | 1 µM |  | half-life | 2.81 h |
| N#C[C@@H]1CC(F)(F)CN1C(=O)CNC(=O)c1ccnc2ccc(OCCCN3CCN(C(=O)CCc4ccc5c(c4)CN4CCN(Cc6cc(CCC(=O)O)ccc6O)CC(=O)[O][Al-]([18F])([O]C(=O)C4)[O]5)CC3)cc12 (stereo partly drawn) | radio-TLC | CD-1 mice, plasma | intravenous, 120 min post-injection |  | radiochemical purity | 55.7 ± 7.9% |
| O=c1c2ccccc2[se]n1CCCCCCn1[se]c2ccccc2c1=O | shake-flask, RP-HPLC | acetone | 24 h, 25 °C |  | solubility | 440 ± 40 µg/mL |
| CCCC[C@H](OC(C)=O)c1ccccc1C(=O)O |  | beagle dog, both sexes, whole blood | intravenous, 5 mg/kg, single dose |  | MRT(0-last) | 1.9 ± 0.5 h |
| C/C(N)=N/C(=N\S(=O)(=O)c1ccc(C(F)(F)F)cc1)N1C[C@H](c2ccccc2)C(c2ccc(Cl)cc2)=N1 | metabolic stability | monkey, liver microsomes |  |  | half-life | > 2 h |
| CC(C)(O)c1ccc(N2Cc3c(ccnc3-c3ccc(F)cc3OCC(F)(F)F)C2=O)cc1 |  | male C57BL/6 mouse, brain | oral, 30 mg/kg, 6 h |  | concentration | 2710 ng/g |
| CN([O-])C(=O)CN1CCN(CC(=O)N(C)[O-])CCN(Cc2ccccn2)CC1.[89Zr+4] | radio-TLC | human serum | 2 days, run 2 |  | intact complex | 100% |
| C=C[C@]1(C)C[C@@H](OC(=O)CSc2ccc(NC(=O)c3ccco3)cc2)[C@]2(C)[C@H](C)CC[C@]3(CCC(=O)[C@H]32)[C@@H](C)[C@@H]1O |  | Mycoplasma gallisepticum-infected chickens, plasma | intramuscular, 40 mg/kg, 8 h |  | plasma concentration | 46.4 ng/mL and 75.8 ng/mL and 108 ng/mL and 54.2 ng/mL and 43.2 ng/mL and 78.8 ng/mL and 23 ng/mL and 85.7 ng/mL |
| Cc1ncsc1-c1ccc(CNC(=O)[C@@H]2C[C@@H](O)CN2C(=O)[C@@H](NC(=O)COCC(C)(COCCOCCOCCNC(=O)C[C@@H]2N=C(c3ccc(Cl)cc3)c3c(sc(C)c3C)-n3c(C)nnc32)COCCOCCOCCNC(=O)C[C@@H]2N=C(c3ccc(Cl)cc3)c3c(sc(C)c3C)-n3c(C)nnc32)C(C)(C)C)cc1 |  | male C57BL/6 mouse, plasma | subcutaneous, 5 mg/kg, 30 min, single dose |  | concentration | 1530 ng/mL |
| O=C(c1ccccc1)N1C(c2ccc(OCC3CCN(CCCF)C3)cc2)c2ccc(O)cc2CC12CC2 (stereo not drawn) |  | C57BL/6J mouse, plasma | oral, 25 mg/kg |  | AUC(0-inf) | 2830 ng·h/mL |
| C[C@]12C[C@H](c3ccc(S(C)(=O)=O)cc3)C3=C4CC[C@@H](O)C=C4CC[C@H]3[C@@H]1CC[C@@]2(O)C(F)(F)C(F)(F)F |  | human, plasma | oral, 5 mg multiple doses, day 28 |  | AUC(0-24 h) | 97.8 ng·h/mL |
| CN(Cc1ccccc1)C(=O)CN1CCN(CC(=O)[O-])CCN(Cc2cccc(C(=O)[O-])n2)CC1.[18F-].[Sc+3] |  | BALB/c mouse, urine | intravenous, 1 h |  | uptake | 220 ± 56.4 %ID/g |
| O=C(Nc1cnccc1-c1ccc([18F])nc1)c1ccnc(NC(=O)C2CC2)c1 |  | FVB/NJ mice (both sexes), spleen | intravenous, dose not given, 120 min |  | SUV | 0.121 |
| Cc1nn(-c2nc3c(F)cc(F)cc3s2)c(O)c1C(c1ccc(C(F)(F)F)cc1)c1c(C)nn(-c2nc3c(F)cc(F)cc3s2)c1O |  | ICR mouse, plasma | oral, 50 mg/kg |  | AUC(0-inf) observed | 384000 ng·h/mL and 354000 ng·h/mL and 386000 ng·h/mL |
| O=C1CCC(N2Cc3cc(C(=O)O)c(F)cc3C2=O)C(=O)N1 (stereo not drawn) |  | male CD-1 mouse, plasma | intravenous, 1 mg/kg, 1 h |  | concentration | 69 ng/mL |
| Cc1nc(N)nc2c1C(=O)N[C@@H](c1ccc(F)cc1-c1cccc(O[11CH3])n1)C2 | ex vivo biodistribution | mice, U87 subcutaneous xenograft, intestines | 60 min post-injection, baseline, vehicle pre-treatment |  | tracer uptake | 19.3 ± 1.3 %ID |
| CN(Cc1ccccc1)C(=O)CN1CCN(CC(=O)[O-])CCN(CC(=O)N(C)Cc2ccccc2)CC1.[44Sc+3] |  | mouse, liver | intravenous, 1 h |  | tracer uptake | 9.75 %ID/g |
| N#C[C@@H]1CCCN1C(=O)CNC(=O)c1ccnc2ccc(OCCCN3CCN(C(=O)CCc4ccc5c(c4)CN4CCN(Cc6cc(CCC(=O)O)ccc6O)CC(=O)[O][Al-]([18F])([O]C(=O)C4)[O]5)CC3)cc12 (stereo partly drawn) | radio-TLC | CD-1 mice, plasma | intravenous, 60 min post-injection |  | radiochemical purity | 88.5 ± 3.1% |
| COc1ccc2c(c1)C(C)(C)C(/C=C/C1=C(Oc3ccc(C(=O)NCCCCOc4cc(CN(Cc5ccccn5)Cc5ccccn5)cc(CN(Cc5ccccn5)Cc5ccccn5)c4)cc3)C(=C/C=C3/N(CCCCS(=O)(=O)[O-])c4ccc(OC)cc4C3(C)C)CCC1)=[N+]2CCCCS(=O)(=O)[O-].O=[N+]([O-])[O-].O=[N+]([O-])[O-].[99Tc+].[C-]#[O+].[C-]#[O+].[C-]#[O+].[Zn+2] |  | mouse, blood | 12 h |  | tracer uptake | 0.62 %ID/g |

Repeated from above:
| SMILES | test | system | conditions | scale | measurement | value |
| --- | --- | --- | --- | --- | --- | --- |
| O=C(Nc1cnccc1-c1ccc([18F])cc1)c1ccnc(NC(=O)C2CC2)c1 | ex vivo gamma counting | FVB/NJ mice, both sexes, cecum | intravenous, 120 min |  | mean SUV | 4.82 |
| CN(Cc1ccccc1)C(=O)CN1CCN(CC(=O)N(C)Cc2ccccc2)CCN(Cc2cccc(C(=O)[O-])n2)CC1.[44Sc+3] |  | mouse, lung | intravenous, 1 h |  | tracer uptake | 1.39 %ID/g |
| CCCCN1C(=O)c2cccc3c(NCCCN4CCOCC4)ccc(c23)C1=O |  | acetonitrile |  |  | fluorescence quantum yield | 0.44 |
